Experimental data gathered from unrelated publications.
Every numbered part comes from another study and shows a few of its results, in no order. “And” joins repeats or separate records; there may be more than shown.
Chain of UniProt Q12851 (whole entry, looked up): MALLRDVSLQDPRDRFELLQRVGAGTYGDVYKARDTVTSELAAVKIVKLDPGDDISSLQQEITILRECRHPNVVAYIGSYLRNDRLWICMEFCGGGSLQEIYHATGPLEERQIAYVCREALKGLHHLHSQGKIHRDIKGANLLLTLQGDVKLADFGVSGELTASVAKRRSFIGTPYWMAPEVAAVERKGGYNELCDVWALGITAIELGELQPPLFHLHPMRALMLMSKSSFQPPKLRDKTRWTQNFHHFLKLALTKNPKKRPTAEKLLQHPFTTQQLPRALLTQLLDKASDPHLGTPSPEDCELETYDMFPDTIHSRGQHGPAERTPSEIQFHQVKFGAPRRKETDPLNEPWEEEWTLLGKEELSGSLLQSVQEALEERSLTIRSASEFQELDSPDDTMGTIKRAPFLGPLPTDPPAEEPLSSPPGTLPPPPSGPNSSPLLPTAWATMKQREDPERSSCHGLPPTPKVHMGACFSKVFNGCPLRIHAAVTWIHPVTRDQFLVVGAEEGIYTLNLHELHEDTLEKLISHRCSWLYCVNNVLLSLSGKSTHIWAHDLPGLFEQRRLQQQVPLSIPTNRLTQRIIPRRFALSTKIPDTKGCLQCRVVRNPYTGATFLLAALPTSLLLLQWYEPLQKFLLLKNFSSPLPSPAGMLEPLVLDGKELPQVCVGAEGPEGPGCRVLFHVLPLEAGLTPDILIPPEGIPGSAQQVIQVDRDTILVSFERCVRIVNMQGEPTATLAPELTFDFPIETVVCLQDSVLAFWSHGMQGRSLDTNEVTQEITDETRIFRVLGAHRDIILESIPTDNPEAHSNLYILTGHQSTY
Chain of UniProt Q8TD19 (whole entry, looked up): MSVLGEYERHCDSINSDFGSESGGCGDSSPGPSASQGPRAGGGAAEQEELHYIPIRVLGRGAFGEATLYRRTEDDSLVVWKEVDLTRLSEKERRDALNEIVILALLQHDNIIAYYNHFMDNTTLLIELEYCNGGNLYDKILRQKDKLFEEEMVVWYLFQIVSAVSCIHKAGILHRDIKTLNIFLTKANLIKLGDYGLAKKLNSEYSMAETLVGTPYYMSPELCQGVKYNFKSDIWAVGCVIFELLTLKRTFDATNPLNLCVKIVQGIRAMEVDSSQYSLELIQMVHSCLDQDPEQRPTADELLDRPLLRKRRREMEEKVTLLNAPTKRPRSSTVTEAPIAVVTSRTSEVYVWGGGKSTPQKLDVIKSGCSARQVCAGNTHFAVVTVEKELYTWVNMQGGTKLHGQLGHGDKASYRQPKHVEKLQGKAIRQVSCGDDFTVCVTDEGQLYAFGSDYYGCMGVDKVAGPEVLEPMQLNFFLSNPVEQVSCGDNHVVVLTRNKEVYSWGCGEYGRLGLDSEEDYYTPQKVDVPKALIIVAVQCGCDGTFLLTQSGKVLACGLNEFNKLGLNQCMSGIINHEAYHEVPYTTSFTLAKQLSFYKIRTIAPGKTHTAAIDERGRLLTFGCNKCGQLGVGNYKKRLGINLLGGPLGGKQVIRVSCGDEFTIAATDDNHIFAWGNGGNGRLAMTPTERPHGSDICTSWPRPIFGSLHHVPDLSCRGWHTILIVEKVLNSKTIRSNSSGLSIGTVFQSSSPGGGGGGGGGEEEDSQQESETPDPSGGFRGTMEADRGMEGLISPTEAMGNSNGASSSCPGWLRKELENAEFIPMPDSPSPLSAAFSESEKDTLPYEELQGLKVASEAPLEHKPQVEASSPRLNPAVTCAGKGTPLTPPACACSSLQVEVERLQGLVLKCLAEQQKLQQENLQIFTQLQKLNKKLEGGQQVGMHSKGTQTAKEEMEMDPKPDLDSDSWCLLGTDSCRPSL
Chain of UniProt P00519 (whole entry, looked up): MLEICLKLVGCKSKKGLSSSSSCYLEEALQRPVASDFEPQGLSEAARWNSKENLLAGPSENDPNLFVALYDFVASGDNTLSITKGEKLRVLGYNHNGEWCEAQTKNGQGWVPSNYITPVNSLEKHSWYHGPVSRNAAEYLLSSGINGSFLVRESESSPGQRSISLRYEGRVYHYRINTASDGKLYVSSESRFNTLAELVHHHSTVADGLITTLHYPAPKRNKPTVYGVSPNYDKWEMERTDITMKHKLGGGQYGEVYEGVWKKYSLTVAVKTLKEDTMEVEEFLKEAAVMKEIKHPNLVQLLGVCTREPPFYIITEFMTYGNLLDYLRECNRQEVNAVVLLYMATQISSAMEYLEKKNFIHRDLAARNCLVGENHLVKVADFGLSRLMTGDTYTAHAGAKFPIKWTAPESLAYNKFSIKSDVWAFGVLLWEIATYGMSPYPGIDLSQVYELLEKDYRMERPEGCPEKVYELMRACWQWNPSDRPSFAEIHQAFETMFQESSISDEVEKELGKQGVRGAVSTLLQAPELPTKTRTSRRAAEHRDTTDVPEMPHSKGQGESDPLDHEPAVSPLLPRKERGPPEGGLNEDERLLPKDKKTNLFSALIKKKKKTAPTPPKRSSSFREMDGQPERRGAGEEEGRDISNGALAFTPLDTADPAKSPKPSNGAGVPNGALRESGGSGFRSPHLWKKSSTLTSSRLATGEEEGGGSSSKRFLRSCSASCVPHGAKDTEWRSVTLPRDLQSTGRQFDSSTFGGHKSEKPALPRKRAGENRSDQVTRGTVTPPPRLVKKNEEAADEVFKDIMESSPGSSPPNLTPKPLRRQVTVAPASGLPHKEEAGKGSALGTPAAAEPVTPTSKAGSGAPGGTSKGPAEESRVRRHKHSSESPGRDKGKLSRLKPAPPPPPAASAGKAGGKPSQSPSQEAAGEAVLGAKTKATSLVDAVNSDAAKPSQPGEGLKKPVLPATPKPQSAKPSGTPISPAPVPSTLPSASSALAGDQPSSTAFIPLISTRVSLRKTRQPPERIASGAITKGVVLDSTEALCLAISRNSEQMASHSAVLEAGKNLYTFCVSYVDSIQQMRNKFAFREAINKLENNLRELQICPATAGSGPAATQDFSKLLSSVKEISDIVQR
Chain of UniProt Q9Y2H1 (whole entry, looked up): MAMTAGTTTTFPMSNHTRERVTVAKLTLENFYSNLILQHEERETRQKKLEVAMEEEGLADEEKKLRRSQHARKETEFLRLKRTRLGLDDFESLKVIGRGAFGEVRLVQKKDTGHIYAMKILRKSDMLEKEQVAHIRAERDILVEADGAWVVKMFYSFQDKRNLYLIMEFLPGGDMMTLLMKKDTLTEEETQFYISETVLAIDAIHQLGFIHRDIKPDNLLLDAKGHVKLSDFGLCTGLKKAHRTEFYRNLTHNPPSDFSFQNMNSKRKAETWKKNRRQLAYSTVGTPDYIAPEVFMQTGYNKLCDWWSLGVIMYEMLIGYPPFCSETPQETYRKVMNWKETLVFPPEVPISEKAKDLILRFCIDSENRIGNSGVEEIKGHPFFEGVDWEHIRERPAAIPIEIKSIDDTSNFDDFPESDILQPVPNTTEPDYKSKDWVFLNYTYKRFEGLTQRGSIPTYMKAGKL

Study 1
Structure (SMILES): C[C@@H]1CN(c2ccc(-c3cc(C(=O)NCCOCCOCCOCCOCCNC(=O)Cn4cc(-c5[nH]cc(C(=O)N[C@@H](CC(N)=O)c6ccc(F)c(Cl)c6)c5-c5ccc(Cl)cc5F)cn4)ccc3F)cc2NC(=O)c2c[nH]c(=O)cc2C(F)(F)F)C[C@H](C)N1C
Read-out: thermal unfolding
Technique: differential scanning fluorimetry
Concentration: 5.5 µM
Reading: higher = more unfolded
WDR5: WD repeat-containing protein 5 (WDR5, Homo sapiens, UniProt P61964)
DCAF1: DDB1- and CUL4-associated factor 1 (DCAF1, Homo sapiens, UniProt Q9Y4B6)
Chain of UniProt Q9Y4B6 (whole entry, looked up): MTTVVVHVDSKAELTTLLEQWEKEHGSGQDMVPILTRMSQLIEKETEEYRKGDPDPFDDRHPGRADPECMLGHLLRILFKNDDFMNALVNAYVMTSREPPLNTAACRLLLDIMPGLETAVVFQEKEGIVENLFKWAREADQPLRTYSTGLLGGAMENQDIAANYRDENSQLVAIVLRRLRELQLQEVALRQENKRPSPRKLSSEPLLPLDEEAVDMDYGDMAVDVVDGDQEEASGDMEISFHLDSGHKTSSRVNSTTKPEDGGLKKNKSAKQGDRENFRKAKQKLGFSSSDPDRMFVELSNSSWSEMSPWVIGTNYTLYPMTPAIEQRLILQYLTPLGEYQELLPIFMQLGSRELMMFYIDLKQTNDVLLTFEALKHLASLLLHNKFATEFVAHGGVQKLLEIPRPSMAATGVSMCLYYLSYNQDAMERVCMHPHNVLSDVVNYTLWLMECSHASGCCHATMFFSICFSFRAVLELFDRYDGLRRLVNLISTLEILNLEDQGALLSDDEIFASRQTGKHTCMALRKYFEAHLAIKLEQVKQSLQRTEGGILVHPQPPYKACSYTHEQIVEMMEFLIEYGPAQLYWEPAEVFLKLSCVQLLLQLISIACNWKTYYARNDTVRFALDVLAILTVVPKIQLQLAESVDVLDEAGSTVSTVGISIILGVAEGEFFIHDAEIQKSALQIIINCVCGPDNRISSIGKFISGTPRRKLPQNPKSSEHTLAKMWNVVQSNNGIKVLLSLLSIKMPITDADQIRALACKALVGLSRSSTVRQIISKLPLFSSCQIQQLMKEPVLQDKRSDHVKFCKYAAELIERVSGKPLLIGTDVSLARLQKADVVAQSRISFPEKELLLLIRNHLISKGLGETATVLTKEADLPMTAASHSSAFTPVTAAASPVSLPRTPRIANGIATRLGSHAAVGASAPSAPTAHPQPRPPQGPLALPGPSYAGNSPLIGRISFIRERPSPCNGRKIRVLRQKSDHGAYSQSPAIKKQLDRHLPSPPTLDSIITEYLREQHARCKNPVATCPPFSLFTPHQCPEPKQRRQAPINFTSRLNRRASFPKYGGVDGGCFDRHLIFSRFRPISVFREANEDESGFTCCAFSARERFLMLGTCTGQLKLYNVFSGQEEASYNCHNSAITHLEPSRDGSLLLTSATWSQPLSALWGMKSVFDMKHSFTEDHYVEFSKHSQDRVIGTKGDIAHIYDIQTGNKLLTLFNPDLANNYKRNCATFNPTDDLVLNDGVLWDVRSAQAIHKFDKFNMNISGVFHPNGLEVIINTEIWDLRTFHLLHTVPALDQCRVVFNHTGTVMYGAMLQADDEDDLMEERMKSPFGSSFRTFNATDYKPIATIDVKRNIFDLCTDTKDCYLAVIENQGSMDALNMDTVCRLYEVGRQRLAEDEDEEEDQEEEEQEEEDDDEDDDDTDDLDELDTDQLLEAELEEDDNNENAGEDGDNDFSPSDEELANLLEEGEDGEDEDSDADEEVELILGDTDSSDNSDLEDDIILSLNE
WDR5; 37.8 °C — “SYPRO Orange fluorescence”: 14400 a.u.
The “SYPRO Orange fluorescence” was 13600 a.u. (DCAF1; 48.2 °C).
WDR5; 25.4 °C — “SYPRO Orange fluorescence”: 14700 a.u.
WDR5; 85.41 °C — “SYPRO Orange fluorescence”: 40300 a.u.
The “SYPRO Orange fluorescence” was 14400 a.u. (WDR5; 52.41 °C).
WDR5; 75.41 °C — “SYPRO Orange fluorescence”: 11900 a.u.
For DCAF1; 71.01 °C: “SYPRO Orange fluorescence” read 53400 a.u.
It gave 14800 a.u. for “SYPRO Orange fluorescence” (WDR5; 25.2 °C).
It gave 6850 a.u. for “SYPRO Orange fluorescence” (WDR5; 68.21 °C).
For WDR5; 35.6 °C: “SYPRO Orange fluorescence” read 14300 a.u.
The “SYPRO Orange fluorescence” was 14800 a.u. (WDR5; 27 °C).

Study 2
Structure (SMILES): CCN1/C(=C/C=C2\CCCC(/C=C/C3=[N+](CC)c4ccccc4C3(C)C)=C2NCCCCCCCCN2CCC(Nc3nc4ccccc4n3Cc3ccc(F)cc3)CC2)C(C)(C)c2ccccc21
Cell line: U-87 MG
Concentration: concentration not given
Baseline: DMSO
It gave 1.05 for “log2 fold change” (refers to: SAMD8 mRNA).
The “log2 fold change” was 1.11 (refers to: ETS1 mRNA).
For refers to: MEF2D mRNA: “log2 fold change” read 0.871.
It gave -2.98 for “log2 fold change” (refers to: DAPK1 mRNA).
It gave 1 for “log2 fold change” (refers to: DENND5B mRNA).
It gave 1.21 for “log2 fold change” (refers to: OSGIN2 mRNA).
refers to: PIANP mRNA — “log2 fold change”: -0.918.
The “log2 fold change” was 0.832 (refers to: XPOT mRNA).
The “log2 fold change” was 1.06 (refers to: TDP2 mRNA).
refers to: ZNF777 mRNA — “log2 fold change”: 0.836.
For refers to: SLC45A4 mRNA: “log2 fold change” read 1.21.
refers to: LRIF1 mRNA — “log2 fold change”: 1.01.
refers to: ZNF484 mRNA — “log2 fold change”: 1.18.
The “log2 fold change” was 0.929 (refers to: ZUP1 mRNA).
For refers to: ALDH7A1 mRNA: “log2 fold change” read -1.17.
The “log2 fold change” was -1.19 (refers to: TUBA1C mRNA).

Study 3
SMILES: COCC1CC2C(CCC3(C)C(O)CCC23)c2ccc(O)cc21 (stereo not shown)
Technique: DNA microarray
Baseline: untreated cells
It gave 3.83 for “log2 fold change” (A549; refers to: TMEM108; 50 µM).
For A549; refers to: IL23R; 50 µM: “log2 fold change” read 3.42.
The “log2 fold change” was -0.398 (PANC-1; refers to: ACTA2; concentration not given, higher dose arm).
A549; refers to: MCM7; 50 µM — “log2 fold change”: -0.387.
For PANC-1; refers to: KIF20A; concentration not given, higher dose arm: “log2 fold change” read -1.9 and -1.85 and -1.82 and -1.86.
It gave -0.736 for “log2 fold change” (PANC-1; refers to: CDCA8; concentration not given, lower dose arm).
For A549; refers to: GINS1; concentration not given: “log2 fold change” read -0.779.
It gave -1.26 for “log2 fold change” (PANC-1; refers to: GTSE1; concentration not given, higher dose arm).
PANC-1; refers to: GINS1; concentration not given — “log2 fold change”: -0.804.
For PANC-1; refers to: CALR3; concentration not given: “log2 fold change” read 2.49.
The “log2 fold change” was 2.39 (PANC-1; refers to: GDF15; concentration not given).
PANC-1; refers to: GAPDH; concentration not given, lower dose arm — “log2 fold change”: 0.377 and 0.455 and 0.485 and 0.428 and 0.451.
It gave -0.85 for “log2 fold change” (PANC-1; refers to: MCM4; concentration not given).
The “log2 fold change” was 3.47 (SK-OV-3; refers to: OLIG2; concentration not given, higher dose arm).

Study 4
SMILES: CN(C1COC1)C(C)(C)/C=C(\C#N)C(=O)N1CCC[C@H]1Cn1nc(-c2ccc(Oc3ccccc3)cc2F)c2c(N)ncnc21
Read-out: kinase activity
For MAPK12 (Homo sapiens, UniProt P53778); 1 µM: inhibition read -7%.
The inhibition was 72% (RIPK2 (Homo sapiens, UniProt O43353); 1 µM).
The inhibition was 0% (MAP4K2 (Homo sapiens, UniProt Q12851); 0.1 µM).
The inhibition was 12% (SRC (Homo sapiens, UniProt P12931); 0.1 µM).
ABL1 (Homo sapiens, UniProt P00519); 1 µM — inhibition: -1%.
PIM1 (Homo sapiens, UniProt P11309); 1 µM — inhibition: 5%.
The inhibition was 1% (NEK9 (Homo sapiens, UniProt Q8TD19); 1 µM).
IRAK4 (Homo sapiens, UniProt Q9NWZ3); 0.1 µM — inhibition: -4%.
For SLK (Homo sapiens, UniProt Q9H2G2); 1 µM: inhibition read -1%.
The inhibition was 2% (TSSK1B (Homo sapiens, UniProt Q9BXA7); 1 µM).
For SPHK1 (Homo sapiens, UniProt Q9NYA1); 0.1 µM: inhibition read 0%.
It gave 0% for inhibition (Protein kinase C beta type, isoform beta-I (PRKCB, Homo sapiens, UniProt P05771); 1 µM).
The inhibition was 14% (PRKD2 (Homo sapiens, UniProt Q9BZL6); 0.1 µM).
For STK38L (Homo sapiens, UniProt Q9Y2H1); 0.1 µM: inhibition read 0%.

Repeated from above (study 3):
It gave 3.83 for “log2 fold change” (A549; refers to: TMEM108; 50 µM).
PANC-1; refers to: GINS1; concentration not given — “log2 fold change”: -0.804.
It gave -0.736 for “log2 fold change” (PANC-1; refers to: CDCA8; concentration not given, lower dose arm).
For A549; refers to: GINS1; concentration not given: “log2 fold change” read -0.779.
